Measured values collected from several papers.
Numbered parts are unrelated; each lists some results of a single study.

Series 1
Target: RING finger protein unkempt homolog, zinc fingers 1-6, GST-SBP tag (UNK, Homo sapiens, UniProt Q9C0B0, residues 30-357)
Method: RNA Bind-n-Seq
Form: RNA
Matrix: in vitro
Tested at: not given
Setting: RNA with constant flanks, human and mouse sites, ends assumed
Baseline: input RNA pool
Direction: higher = stronger binding
Endpoint: bound/input enrichment
Constant ends, left off below: GGGAGUUCUACAGUCCGACGAUC … CAACAGAGGAUUGAGCAUCA
Residues (chain): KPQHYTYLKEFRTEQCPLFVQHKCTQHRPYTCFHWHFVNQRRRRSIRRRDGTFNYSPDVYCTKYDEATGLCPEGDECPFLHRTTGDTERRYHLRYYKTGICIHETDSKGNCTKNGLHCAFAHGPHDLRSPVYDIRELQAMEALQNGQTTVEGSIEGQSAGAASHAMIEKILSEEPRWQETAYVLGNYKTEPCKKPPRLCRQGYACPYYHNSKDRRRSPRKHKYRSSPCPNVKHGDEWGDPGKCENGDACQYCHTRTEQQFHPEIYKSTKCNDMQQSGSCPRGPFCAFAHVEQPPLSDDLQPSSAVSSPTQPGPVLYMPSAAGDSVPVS
AUGAACCUGCAGAUAGUGGACAGAGCCAUUCAGGUAGUCCGAAGUGCGUUGGCCAACCAGAUAGACUGGACAGAAAUCGGAGUGAUUGUGAAAGAAGCUCAAGCUCAAGGAGACCCGGUU: 0.171 ratio
AUUUUGGUUUGGUUUGGUUUUUGAAGUUAUGUGAUAUUUCACAUUUAAAUCUUUUUUCUUUUUUACAUGUUUUCUCUUGUGCAUCAAUUUAAAUGUUACAACCAUGUAAACUACUUCUCU: 0.426 ratio
UAUAAUGCCUUGGAAACAAACAUUAUUCCAUCAUUUGUGUUGAUGGAUAUCCAGGCUUCUACAGUGGUCACCUAUGUGUAUCAGCUAAUUGGAGAUGAUGUGAAAGUAGAACGAAUCGAA: 0.114 ratio
UUCUUAAUUUUUCUUUCUUACAAAAACUGAUUUUUCCCAUAAAUAUUUUUACUUCAGAGGACUAGGACCAUUUUGUUUUGGGCCCUUCUGCUGAAAAUUUGUCUCGUUUAAGAGGCAGCU: 3.85 ratio
CGAGUAGUUGGCAAAGAGCAGGGCCAGAAUUUAGCAAGACAGUGGUGUAACUGUGCCUUUUUAGAAUCUUCUGCAAAGUCAAAGAUCAAUGUUAAUGAGAUAUUUUAUGACCUGGUCAGA: 2.9 ratio
AUAGGCUCCUGUAUAAAUGCCAUUGAUUCAGAGCCCAAAGAUGUCAUUGCUAAUUCAAAUGCUGUGUUAAUGGACCUGGACAGUGGUGAUGUUAAGAGAAGAGUACAUUUAUUUGAAACC: 1.27 ratio
GUACAUUUUGUGCAAUGGCUUUAUCUAAAAGAAUGACGCUUCGUGAAAGCACUUUGUGGCCUUUUUUGGGGGGGAGGGUGAGAGAGUAGGAGAGAAUACCAUGUUAAGAUUAAAAAAAAA: 0.838 ratio
AAGGAGAAGUGGGUGGAGAGUGCCUUUGAAGUGGACGGGCCCUACUAUUUCACAGUCUUGGCCCUUCACAUCCUGCCCCCUGAGCAGUGGAGAGCCACACGUGUGGAAAUCUUGCGGAGG: 0.199 ratio
GGCCCUGAGAAAGCCAAGACCCAGGACGUAAUCAACAUAGCUACCCAAGAGAUAAAUGCAGACCCUCCCGUUGCCCAAGAGGUUCAGGUGGCUGCAGAGAUCACAGGGGCGACUCCUCAC: 0.0497 ratio
AAGCAGAAGCUGAUGCUGAAAGAGAGCAAUUUUGCUGACAGUUAUUAUGACUACAUUUGUAUUAUUGACUUUGAAGCCACUUGUGAAGAAGGAAACCCACCUGAGUUUGUACAUGAAAUA: 0.149 ratio
AUGAAGACUCGAAGAGGAGGGGUCACUUUUCUGGAAGAUGUCUUAAAUGAGGUUCAAUCAAGGAUGCUACAGAACAUGGCUUCCAUUAAGACCACGAAACAAUUGGAGAACCCUCAGGAG: 0.209 ratio

Series 2
Target: RNA binding protein fox-1 homolog 2, RRM domain, GST-SBP tag (RBFOX2, Homo sapiens, UniProt O43251-10, residues 100-194)
Method: RNA Bind-n-Seq
Form: RNA
Matrix: in vitro
Tested at: 365 nM
Setting: natural RNA segment, single round, ends assumed
Baseline: no-protein control
Direction: higher = stronger binding
Endpoint: RBNS enrichment (R)
Constant ends, left off below: GGGAGUUCUACAGUCCGACGAUC … UGGAAUUCUCGGGUGCCAA
Construct (chain): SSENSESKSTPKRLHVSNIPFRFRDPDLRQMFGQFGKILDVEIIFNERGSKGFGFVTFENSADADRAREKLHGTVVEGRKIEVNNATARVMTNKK
GGCAGGAGGAUUGCUUUAGCCCUGGAGGUCGAGGCUGCAGUAAGCCAUGAUUGCGCCACUGCACUCAGCCCGGGUGACAAAGCAAGACCCUGUCUCAGAAAAAAAGAAAA: 0.364
GCCACUGUCUCCUCUCCAUCCCGCCCAGCCAUGUGACACUGGCUCCCGGUAGACGGGCACCCCGAGAUGUACCAACCUUUUCAUGUAUUCUGCCAAAAGCAUUGUUUUCC: 0.335
CAUACACACAUACAUGCUUUUGUGAUUUUUUUUAUUAGUGCUUUUACAUUUAGAAAUAUUUAUUUAUUCUAGCAGGGAAAAAACCCCACAUGCUUUAAAUGAUGUCACUU: 0.843
UCCUAAAAGUAACAGGUUUCGUGUGAGUGUGCUUGUAUACGUGAGAUUUGCCUUAUUUUCAGGUUGUUUUAUUUAACGAUGGUUCCUUGGACAGCAUUCUGGUGUUCAGC: 8.82
CCAUAAAACCAUUUUUUGAACCAAUCAGUAAUUUUAAGGUUUUGUUUGUUCUAAAUGUAAGAGUUCAGACUCACAUUCUAUUAAAAUUUAGCCCUAAAAUGACAAGCCUU: 0.556
UGUGCCCUUGGGCUGAGCCCUAGACUUGGGGCUCUGUACAUAGCUAUGAAGAAAAACACAAAGUGUAUAAAUCUUGAGUAUAUAUUUACAUGUCUUUUUAAAAAGGGUCG: 0.317
GUAGAUUUCAUUGAGGUUUUAGAUUGAAACUUUGAAUAAAUCAAAAAUACUCAUUCUUAUUUACUGCAACCUUCUCAUAUUUUAUAUACUUAGAUGGAAAAUUAUUUUUU: 1.48
GUCAGGCUUUGUGUUAUUUUAAAUGGUUUUUUAAAAUUUUCUUCUAUGUUUUCAAUUACCUAAAGACAUAGGAUAAUAGUUUUUUUUAAGUUAGAAUUUUACCUCAUAAA: 0.757
UUUUUUAUAUCUCACACUUCACACCAGUGCAUUACACUAACUUGUUCACUGGAUUGUCUGGGAUGACUUGGGCUCAUAUCCACAAUACUUGGUAUAAGGUAGUAGAUUGU: 0.313

Series 3
Target: Interferon regulatory factor 7, full length, phosphomimetic (IRF7, Homo sapiens, UniProt Q92985, residues 1-503, S471D/S472D/S475D/S476D/S477D/S483D/S484D/S487D)
Method: protein-binding microarray
Form: double-stranded DNA, one strand shown
Matrix: in vitro
Tested at: 2200 nM top
Setting: 60-bp whole probe
Together with: salmon DNA 0.4 mg/ml
Baseline: random background probes
Direction: higher = stronger binding
Endpoint: fitted relative affinity
Constant ends, left off below: GCCTAGCAC … GTCTTGATTCGCTTGACGCTGCTG
Construct (chain): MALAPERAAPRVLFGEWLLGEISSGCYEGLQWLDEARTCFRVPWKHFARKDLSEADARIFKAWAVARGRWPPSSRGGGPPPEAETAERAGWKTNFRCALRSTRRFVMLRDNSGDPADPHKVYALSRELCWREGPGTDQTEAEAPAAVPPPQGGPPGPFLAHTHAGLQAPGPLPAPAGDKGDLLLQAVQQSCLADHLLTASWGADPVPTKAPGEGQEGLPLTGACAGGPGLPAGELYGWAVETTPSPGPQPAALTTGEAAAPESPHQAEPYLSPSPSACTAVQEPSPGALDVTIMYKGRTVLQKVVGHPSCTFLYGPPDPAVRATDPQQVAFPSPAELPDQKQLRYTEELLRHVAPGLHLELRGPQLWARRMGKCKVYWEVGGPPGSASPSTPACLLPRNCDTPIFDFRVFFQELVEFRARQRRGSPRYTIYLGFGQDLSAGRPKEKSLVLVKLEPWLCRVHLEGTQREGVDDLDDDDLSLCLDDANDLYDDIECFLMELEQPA
GCCGAACTGAGACTGGAGACGTGCTAG: -0.146 z-score
GTACCACTCCAGTTCTGGGAGTGCTAG: 0.589 z-score
TTAGCTTTCGGTTCCGGTTAGTGCTAG: 11.7 z-score
TCAACCATCATCCTCACACTGTGCTAG: 1.36 z-score
TTAGGTTTTCTTATCCTTTAGTGCTAG: 1.37 z-score
GCTTCCTCACCTGATGCCTCGTGCTAG: 1.69 z-score
AGTAATGACCTTCTCAGGAGGTGCTAG: -0.0557 z-score
TTAGGGCTCGGTCTCGGTTAGTGCTAG: -0.542 z-score
GACGGTCACGGTATCGGGACGTGCTAG: -0.844 z-score
TCATATATATTTATGTAACTGTGCTAG: 0.868 z-score
GACGGACTGCTACTGCGGACGTGCTAG: -0.498 z-score
GACGGACTGCTTATCCTGCCGTGCTAG: 0.214 z-score
CTACTTCTGTTTTTGCTTTCGTGCTAG: 5 z-score
GGACACGGATGCGGTCTGCCGTGCTAG: -0.403 z-score
TCAACTAGGAGTTTTCAGACTGTGCTA: -0.129 z-score
TTAGGTCTCGAACTGGGTTAGTGCTAG: -0.0896 z-score
TTAAGACTGCTTCTCCTTTAGTGCTAG: 0.615 z-score
GAGGGTTTCCTTATCCTGACGTGCTAG: 1.28 z-score
CGCTTTCTTTAACTCATTTTGTGCTAG: 2.43 z-score
GACCCTGGACACTTCACGTAGTGCTAG: -0.114 z-score
TTAGGTATCGAATTTCGGTTAGTGCTA: 2.78 z-score

Series 4
Target: Histone acetyltransferase KAT6A, winged helix 2, GST fusion (KAT6A, Homo sapiens, UniProt Q92794, residues 85-181)
Method: protein binding microarray
Form: double-stranded DNA, one strand shown
Matrix: in vitro
Tested at: not given
Setting: 8-mer, flanks averaged, mean of 2 arrays, mostly near background
Baseline: not given
Direction: higher = stronger binding
Endpoint: E-score
Target sequence (chain): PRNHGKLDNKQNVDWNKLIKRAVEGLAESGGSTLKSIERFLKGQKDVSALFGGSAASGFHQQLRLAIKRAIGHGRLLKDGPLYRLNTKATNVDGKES
ATTTCGCA: 0.156
CTATAGAA: -0.0558
ATTACTGA: -0.0903
AATTTAAG: 0.0594
AAGAATCT: -0.0811
AAAGTATA: -0.129
ACGGAAGT: -0.212
AGAGATAT: -0.0283
CTAATGTA: -0.071
AATTAAGG: -0.122
CGCGGTCA: 0.0865
TACGCCCA: 0.0731
ATGTCGGG: 0.0281
GAGCAATA: 0.0393
CCGGCATC: 0.167
AGAAAGCC: 0.0244
GCACTATA: 0.0305
TCAAGACA: -0.0832
GCCCGTGA: -0.0413
GTGTGAAA: 0.139
CAACACGG: 0.0625
AACATGTC: -0.216
CACCCATG: 0.0389
CGGCGTAG: -0.0254
ACCCCTCT: -0.262

For quick reference, copied from above (series 4):
AAGAATCT: -0.0811
AAAGTATA: -0.129
ACGGAAGT: -0.212
AGAGATAT: -0.0283
CTAATGTA: -0.071
